# Assay results collected from several papers.
# A part holds a random share of what one study measured. Substitutions count along the parent as printed.

# Sample 1
# Target: Histone acetyltransferase KAT6A, winged helix 2, GST fusion (KAT6A, Homo sapiens, UniProt Q92794, residues 85-181)
# Method: protein binding microarray
# Form: double-stranded DNA, one strand shown
# Medium: in vitro
# Concentration: not given
# Setting: 8-mer, flanks averaged, mean of 2 arrays, mostly near background
# Baseline: not given
# Reading: higher = stronger binding
# Target sequence (chain): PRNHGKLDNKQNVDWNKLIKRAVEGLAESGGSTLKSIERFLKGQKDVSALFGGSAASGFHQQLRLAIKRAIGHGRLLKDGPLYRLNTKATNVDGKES
Sequence,E-score
CGTACTCA,-0.227
AACTTTTG,-0.088
GCTTCCAA,0.116
TACTACTA,-0.217
AACCCGCC,0.0819
ATATCGTC,-0.134
TAATACGA,-0.0307
CCCATCCA,0.0354
CACCAAAA,0.0567
CGGTGGCA,-0.0226
AGGGCGAA,-0.016
AACATCAC,-0.155
GATAACGC,-0.0827
AGGTGACT,0.0139
CACGCAGA,0.0842
CTCCTCTC,-0.183
ACGCAGGG,0.227

# Sample 2
# Target: BATF3, bZIP domain (human)
# Method: DHFR protein complementation
# Medium: yeast
# Setting: single substitutions, most at no-binding floor
# Baseline: wild-type JUN-FOS pair
# Reading: higher = stronger binding
# Starting sequence: JUN, bZIP domain (human); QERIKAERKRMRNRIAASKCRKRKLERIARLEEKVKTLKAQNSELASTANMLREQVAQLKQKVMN; partner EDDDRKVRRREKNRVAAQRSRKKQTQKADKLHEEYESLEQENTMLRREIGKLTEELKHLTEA
Change,binding fitness [natural log]
L45G,-0.797
E32T,0.122
L31E,0.232
V35C,0.208
T48M,0.136
T37L,0.276
R53L,0.014
E44K,0.186
E54F,0.0873
L45H,-0.118
S43M,0.19
V35H,-0.195
M51I,0.21
A57P,-0.829
V35Q,-0.228
Q41K,0.201

# Sample 3
# Target: ABI1, truncated, D143A, DHFR fusion (Arabidopsis thaliana)
# Method: DHFR PCA, deep sequencing
# Medium: yeast
# Setting: methotrexate growth selection, single substitutions
# Added: (+)-ABA 2500 µM
# Baseline: wild-type fitted maximum
# Reading: higher = stronger binding
# Starting sequence: PYL1, truncated, DHFR fusion (Arabidopsis thaliana); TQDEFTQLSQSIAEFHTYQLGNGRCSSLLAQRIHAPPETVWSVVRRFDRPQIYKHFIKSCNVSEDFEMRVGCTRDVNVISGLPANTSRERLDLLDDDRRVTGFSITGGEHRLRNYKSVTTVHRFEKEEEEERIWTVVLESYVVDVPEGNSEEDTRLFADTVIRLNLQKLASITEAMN
Change,relative binding score [%]
M176H,95.1
V137K,-4.78
E89T,3.67
N177K,101
V70T,94.7
A30E,104
Q31M,84.6
V121D,6.25
F47D,-3.34
E64I,97.3
I57V,95.6
Q167D,93.5
V62R,81
L166T,29.3
T1Y,98.8

# Sample 4
# Target: Ras GTPase-activating protein-binding protein 1, full length (G3BP1, Homo sapiens, UniProt Q13283)
# UniProt Q13283, sequence (whole entry, looked up): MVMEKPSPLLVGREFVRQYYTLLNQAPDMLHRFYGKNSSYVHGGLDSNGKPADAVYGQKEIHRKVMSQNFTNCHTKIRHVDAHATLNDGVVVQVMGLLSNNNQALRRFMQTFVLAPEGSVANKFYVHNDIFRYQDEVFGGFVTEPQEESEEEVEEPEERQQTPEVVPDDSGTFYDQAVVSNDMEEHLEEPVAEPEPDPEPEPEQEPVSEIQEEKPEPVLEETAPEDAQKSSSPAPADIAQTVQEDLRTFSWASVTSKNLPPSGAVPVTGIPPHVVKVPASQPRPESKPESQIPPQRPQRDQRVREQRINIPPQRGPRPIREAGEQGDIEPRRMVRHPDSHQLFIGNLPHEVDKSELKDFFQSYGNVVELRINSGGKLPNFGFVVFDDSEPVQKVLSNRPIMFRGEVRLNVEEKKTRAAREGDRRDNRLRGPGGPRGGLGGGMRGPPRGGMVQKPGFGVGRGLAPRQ
# Method: RNA Bind-n-Seq
# Form: RNA
# Medium: in vitro
# Concentration: 200 nM
# Setting: whole 134-nt RNA, ends assumed
# Added: 150 mM KCl
# Baseline: input library
# Reading: higher = stronger binding
Sequence,log2 enrichment
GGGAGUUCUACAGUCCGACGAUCCAAGUCCUGUGCUACACAUCGUAUGUACCGAAUCGGGGAAAGGGGUGGGGAGGGGAAAGUAUUAUGUUACGCCGUUCGGAUCUGCACUUCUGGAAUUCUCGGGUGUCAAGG,1.39
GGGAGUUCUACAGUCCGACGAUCACCAUGCAGGUGGGCAUCUGUGGGAAGUGGGGCAAGGGGGGGAUAGGGAGGGGGGUAACACUUUGGGAACAGGUGGUCCCAGGUCGUUUCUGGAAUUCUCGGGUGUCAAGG,1.46
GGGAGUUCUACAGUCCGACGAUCCAAGUCCUGUGCUACACAUCGUAUGUACCGAAUCGGGUUUUUGGGAGGGUUUGGGAAAGUAUUAUGUUACGCCGUUCGGAUCUGCACUUCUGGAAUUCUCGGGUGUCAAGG,0.336
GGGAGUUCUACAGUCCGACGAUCCAAGUCCUGUGCUACACAUCGUAUGUACCGAAUCGGGUUUGGGUGGGUUUUUGGGAAAGUAUUAUGUUACGCCGUUCGGAUCUGCACUUCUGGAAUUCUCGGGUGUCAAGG,0.464
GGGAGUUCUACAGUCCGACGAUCUGGCCCUGGUGGCAUGUGGGGAGGAAGAGGUGGCCUCAUGGAUCGUGGUGGUCCCGGUGGAAUGUUCAGAGGUGGCCGUGGUGGAGACAGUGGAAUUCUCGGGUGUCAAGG,0.279
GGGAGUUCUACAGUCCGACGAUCGUCCUGUGCUACACAUCGUAUGUACCGAAUCGGGGCCCCCGGCCCCCGGGGCCCCCGGAAAGUAUUAUGUUACGCCGUUCGGAUCUGCACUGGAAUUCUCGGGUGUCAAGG,-0.9
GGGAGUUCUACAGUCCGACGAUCAAGUCCUGUGCUACACAUCGUAUGUACCGAAUCGGGGUGGGGUUUUUGGGGAGGGGAAAGUAUUAUGUUACGCCGUUCGGAUCUGCACUUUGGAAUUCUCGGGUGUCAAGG,0.499
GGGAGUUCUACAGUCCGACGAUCUCCUGUGCUACACAUCGUAUGUACCGAAUCGGGGAAAAAAAGGGGAAAGGGGUUUGGGGAAAGUAUUAUGUUACGCCGUUCGGAUCUGCAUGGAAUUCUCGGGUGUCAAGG,0.841
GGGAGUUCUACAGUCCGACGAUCCCUCAAGUCCUGUGCUACACAUCGUAUGUACCGAAUCGGUUGGUUGGUUGGGAAAGUAUUAUGUUACGCCGUUCGGAUCUGCACUUCCAGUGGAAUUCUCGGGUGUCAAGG,-0.125
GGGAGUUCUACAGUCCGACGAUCUCACCUGUUUACAGUGAAUCAGACGUCCCAAUAGAUGUGGAGACGGUCACAUCAACGCCUAUGCCACUCUAUGACAAUCAGAAGGCACGCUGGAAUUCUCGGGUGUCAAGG,-1.26

# Sample 5
# Target: Sal-like protein 4, full length isoform B (SALL4, Homo sapiens, UniProt Q9UJQ4-2, residues 1-616)
# Method: universal PBM
# Form: double-stranded DNA, one strand shown
# Medium: in vitro
# Concentration: not given
# Setting: 8-mer, flanks averaged, mean of replicates
# Reading: higher = stronger binding
# Target sequence (chain): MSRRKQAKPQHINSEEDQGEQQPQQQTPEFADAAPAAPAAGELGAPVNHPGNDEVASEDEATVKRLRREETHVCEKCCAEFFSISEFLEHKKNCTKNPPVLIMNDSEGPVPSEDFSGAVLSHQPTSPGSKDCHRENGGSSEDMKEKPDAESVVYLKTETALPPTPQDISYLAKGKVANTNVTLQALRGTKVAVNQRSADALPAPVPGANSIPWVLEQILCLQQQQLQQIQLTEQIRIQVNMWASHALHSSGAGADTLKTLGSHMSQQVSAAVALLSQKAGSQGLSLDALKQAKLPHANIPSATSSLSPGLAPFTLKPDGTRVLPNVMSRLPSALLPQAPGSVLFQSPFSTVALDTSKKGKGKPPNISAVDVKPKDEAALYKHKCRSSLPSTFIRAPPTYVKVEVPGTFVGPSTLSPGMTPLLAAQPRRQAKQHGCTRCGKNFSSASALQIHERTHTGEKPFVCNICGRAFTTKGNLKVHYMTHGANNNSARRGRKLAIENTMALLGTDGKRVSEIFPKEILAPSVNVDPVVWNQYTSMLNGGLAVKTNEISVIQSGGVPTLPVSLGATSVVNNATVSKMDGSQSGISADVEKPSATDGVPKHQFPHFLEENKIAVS
Sequence,E-score
GAGATAAA,0.157
CCCGCGCG,-0.195
AAAATTAG,0.283
GTCTATGA,0.105
ACCGCACT,-0.236
ACGCCGCC,-0.353
CACCAACC,-0.207
ATCTCACC,0.0599
CACCGCAC,-0.333
GGTCGAGA,-0.222
AGTTCATG,0.0114
GCGAGCTA,-0.145
GGGACGGA,-0.253
ACCGATTC,-0.184
ACAATTAC,0.319
CTGCCAGA,-0.21
CTCAGGAC,-0.156
CATCAAGG,-0.066
ATTGACCG,0.00509
AAAATCTA,0.303

# Sample 6
# Target: CCNB2, cyclin fold, Cln2 fusion (human)
# Method: yeast growth competition, sequencing
# Medium: yeast
# Setting: weak parent motif
# Baseline: not given
# Reading: higher = stronger binding
# Starting sequence: WEE2 docking peptide (human); KELRQKLNFSYCE; partner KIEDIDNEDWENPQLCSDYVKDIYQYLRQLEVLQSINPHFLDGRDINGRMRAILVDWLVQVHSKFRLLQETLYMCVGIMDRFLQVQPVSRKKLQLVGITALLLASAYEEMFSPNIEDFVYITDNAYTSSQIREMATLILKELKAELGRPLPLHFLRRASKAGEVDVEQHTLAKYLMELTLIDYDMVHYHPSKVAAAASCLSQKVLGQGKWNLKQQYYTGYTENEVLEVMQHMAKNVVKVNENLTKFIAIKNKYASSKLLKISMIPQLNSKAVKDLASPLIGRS
Change,normalised enrichment score
K6A,0.41
L3A,-0.307
Y11A,0.909
N8A,0.816
Q5A,0.193
R4A,-0.118

# Sample 7
# Target: TAR DNA-binding protein 43, full length, His tag (TARDBP, Homo sapiens, UniProt Q13148, residues 1-414)
# Method: RNA Bind-n-Seq
# Form: RNA
# Medium: in vitro
# Concentration: 20 nM
# Setting: 6-mer, flanks averaged, single round
# Added: 150 mM LiCl
# Baseline: input library
# Reading: higher = stronger binding
Sequence,6-mer enrichment (R)
UCUCUU,1
GAAAGG,1.03
CGACCC,0.938
GCAGAC,0.871
GAGAUA,0.931
CAAGCC,0.871
UGAUAU,0.954
UUUAUA,1.12
GGAGCC,1.02
CUCAAC,0.814
ACAUCG,0.798
UUCCAG,0.924
AGGUAC,0.875
AAUGCG,1.02
GGGAAG,1.18
AAGACA,0.797
AGGCGG,1.09
UGAUUA,0.912
UGCACU,0.892
CUAUUA,0.949
UAUGGC,1.01
GCCGGA,0.975
AACGGC,0.851
CUGUAA,0.904
GCCCUA,0.99

# Other studies, line by line
Substance,target,assay,system,conditions,scale,endpoint,result
"PhoQ, residues 284 288 289 292 302 303 QWQEDG","PhoP, residues 12 14 15 18 19 NFCKL (Escherichia coli, UniProt P23836)","Sort-seq, item: YFP reporter",E. coli,"PhoQ-PhoP variant library, added: 10 µM Mg2+","baseline: high Mg2+ state, higher = stronger signaling",fold induction,1.51
